Measurements pooled from the literature.
Numbers after ± are the reported error.

NC[C@@H](C(=O)Nc1ccc(-c2cn[nH]c2)cc1)c1ccccc1 — total eye irritation score (OECD 405 eye irritation; New Zealand White rabbit, eye; topical, 0.1%, 97 h (day 5); direction not given): 1
O=S1(=O)CC2CCCCC2CS1 (centres unmarked) — association constant (phase solubility; water; 25.0 °C, with: hydroxypropyl-β-cyclodextrin): 81 M⁻¹
CCc1c2c(nc3ccc(O)cc13)-c1cc3c(c(=O)n1C2)COC(=O)[C@]3(O)CC — Tmax (human patients, plasma; intravenous, 12 mg/m2 of parent drug): 1.5 h
Cc1cc2c(cc1C1(c3ncc(C(=O)O)cn3)CC1)C(C)(C)CCC2(C)C — blood triglycerides (Sprague-Dawley rat, male; oral, 100 mg/kg, 12 h, sesame oil vehicle): 136 ± 22.2 mg/dL
NC(=O)c1c(F)ccc(OCc2nc3cc(Cl)cnc3s2)c1F — C0 (mouse, plasma; intravenous, 3 mg/kg): 3700 ng/mL
COc1ccc(C=NCCCN(C)CCN(C)CCCN=Cc2ccc(OC)cc2[O-])c([O-])c1.[67Ga+3] — tissue uptake ratio (rat; intravenous, 1 min; baseline: heart over blood): 4 ± 0.4
OC1(C(F)(F)F)CCN(c2nc(Nc3ccnc(C(F)(F)F)c3)nc(-c3cccc(C(F)(F)F)n3)n2)C1 (centres unmarked) — Cmax accumulation ratio (monkey, both sexes; oral, 1 mg/kg daily for 14 days; baseline: day 14 over day 1): 5
Oc1ccc2ccccc2c1/N=N/c1ccccc1 — measured concentration (extracted rat blood QC samples; 0.2 µg/L, 4 h, room temperature, short-term stability): 0.198 µg/L
CC(C)(O)c1ncc([S@](N)(=O)=NC(=O)Nc2c3c(cc4c2CCC4)CCC3)s1 — half-life (healthy human volunteers, plasma; oral, 200 mg once daily, day 14, spray-dried dispersion): 12.5 h
CC(=O)N[C@H](CC(=O)O)C(=O)N[C@H](Cc1c[nH]c2ccccc12)C(=O)N[C@H](Cc1ccccc1)C(=O)N[C@H](CCCCN)C(=O)N[C@H](C)C(=O)N[C@H](Cc1ccccc1)C(=O)N[C@H](Cc1ccc(O)cc1)C(=O)N[C@H](CC(=O)O)C(=O)N[C@H](CCCCN)C(=O)N[C@@H](C(=O)N[C@H](C)C(=O)N[C@H](CCC(=O)O)C(=O)N[C@H](CCCCN)C(=O)N[C@H](Cc1ccccc1)C(=O)N[C@H](CCCCN)C(=O)N[C@H](CCC(=O)O)C(=O)N[C@H](C)C(=O)N[C@H](Cc1ccccc1)C(N)=O)C(C)C — Cmax (statin-treated high-risk CHD men, plasma; oral, 100 mg daily, day 1, 0 to 2 h, mean, detected subjects only): 2.84 ng/mL
CCCC[C@H](NC(=O)CNC(=O)CNC(=O)CN1CCN(CC(=O)O)CCN(CC(=O)O)CCN(CC(=O)O)CC1)C(=O)N[C@H]1CC(=O)NCCCC[C@@H](C(N)=O)NC(=O)[C@H](Cc2c[nH]c3ccccc23)NC(=O)[C@H](CCCNC(=N)N)NC(=O)[C@@H](Cc2ccccc2)NC(=O)[C@H](Cc2c[nH]cn2)NC1=O [gallium-67 labelled] — tissue uptake (female C57 mice, B16/F1 melanoma, stomach; intravenous, 0.037 MBq, 4 h): 1.26 ± 0.11 %ID/g
C[Si](C)(C)C[C@@H](CN)CC(=O)O — brain Cmax (Sprague-Dawley rat, male, brain; oral, 100 mg/kg, estimated as Cmax x Kp): 2900 nM
COCCOCCOCCOCCC(=O)NCc1cc(CNC(=O)CCOCCOCCOCCOC)cc(-c2cc3cc4nc(c(-c5ccc(CCC(=O)O)cc5)c5[nH]c(cc6nc(c(OC)c2[nH]3)CC6(C)C)cc5-c2cc(CNC(=O)CCOCCOCCOCCOC)cc(CNC(=O)CCOCCOCCOCCOC)c2)CC4(C)C)c1 — singlet excited-state lifetime (water with 5% DMF; room temperature): 3.29 ns
O=C(NCCCN(CCCCN(CCCNC(=O)c1cccc(=O)n1[O-])C(=O)c1cccc(=O)n1[O-])C(=O)c1cccc(=O)n1[O-])c1cccc(=O)n1[O-].[89Zr+4] — tracer uptake (mouse, kidney; 10 min): 9.46 %ID/g
C#CCN(CCCNC(=O)CCCCC[N+]1=C(/C=C/C2=C(Cl)C(=C/C=C3\N(CCCCCC(=O)[O-])c4ccccc4C3(C)C)/CCC2)C(C)(C)c2ccccc21)CCCOc1ccc(Cl)cc1Cl — concentration (mouse plasma; 1 µg/mL nominal, 3 freeze-thaw cycles at -80 °C): 950 ± 30 ng/mL
CC(C)[C@H](NC(=O)[C@@H]1CCCN1C(=O)[C@H](CCCNC(=N)N)NC(=O)[C@H](CS)NC(=O)[C@H](Cc1c[nH]c2ccccc12)NC(=O)[C@H](CCCNC(=N)N)NC(=O)[C@@H](Cc1ccccc1)NC(=O)[C@H](Cc1c[nH]cn1)NC(=O)[C@H](CCC(=O)O)NC(=O)[C@H](CS)NC(=O)[C@H](CS)NC(=O)[C@@H]1CC(=O)N[C@@H](CCCNC(=N)N)C(=O)NCC(=O)N[C@@H](CC(=O)O)C(=O)N[C@H](Cc2ccc(O)cc2)C(=O)N1)C(N)=O [technetium-99m labelled] — tumour to tissue ratio (C57 mouse, female, B16/F1 melanoma; intravenous, 0.037 MBq, 4 h; baseline: tumour over lung): 19.2
OCc1cn(Cc2ccc(-c3noc(-c4ccc(OCC[18F])c(C(F)(F)F)c4)n3)cc2)nn1 — brain uptake (Lewis rats, female, thalamus; intravenous, 5 min): 0.46 %ID/g
COc1cc2c(cc1OC)CN(CCCCn1ccc3cc(OCC[18F])ccc31)C2 — uptake (ICR mice, male, stomach; intravenous, 30 min): 2.83 ± 0.54 %ID/organ
N=C(N)NCCC[C@@H]1NC(=O)[C@H](Cc2c[nH]c3ccccc23)NC(=O)[C@@H](CC2CCCCC2)NC(=O)[C@@H]2CCCN2C(=O)[C@@H](NC(=O)CCc2ccccc2)CCCNC1=O — absorption rate constant (C57BL/6J mice, brain; subcutaneous, 1 mg/kg, two-compartment model): 2.35 h⁻¹
COc1ccc(/N=N/c2ccc(OC[C@@H](O)CNC(C)C)cc2)cc1 — thermal half-life of cis isomer (UV/Vis spectroscopy; Epac buffer with 0.5 % DMSO; 50 µM, 28 °C, with: 365 nm light for 3 min): 7.1 h
Cn1c(=O)oc2ccc(-c3ccc(CC(C#N)NC(=O)C4CNCCCO4)c(F)c3)cc21 (centres unmarked) — AUC(0-inf) (human, plasma; 40 mg once daily, day 28, geometric mean): 8810 ng·h/mL
NC12CNCCNCC(NCc3ccc(CNC(=O)CCCC(=O)NCc4ccc(-c5nncnn5)cc4)cc3)(CNCCNC1)CNCCNC2.[64Cu+2] — mean absorbed dose (OLINDA dosimetry; red marrow; pretargeting, 48-h interval): 0.028 rad/mCi
COC(=O)c1ccc2c(c1)NC(=O)/C2=C(\Nc1ccc2c(c1)CCN2C(=O)CN1CCOCC1)c1ccccc1 — dose-normalized Cmax (cynomolgus monkey, plasma; oral, 5 mg/kg): 73 ± 54 ng/mL
COc1cc(NC(C)=O)c2c(c1O)-c1c(OC)c(OC)cc3c1C(C2)N(C)CC3 (centres unmarked) — remaining compound (rat heart homogenate; 50 µg/mL, 40 d, -20 °C, long-term storage): 94 ± 2.5%
CC[C@@H](C)[C@H]1NC(=O)[C@@H]([C@H](C)O)NC(=O)[C@@H](Cc2c[nH]cn2)NC(=O)CNC(=O)[C@@H](CCCNC(=N)N)NC(=O)CNC(=O)[C@@H](Cc2ccccc2)NC1=O — concentration (New Zealand white rabbit, female, vitreous; ocular, 0.5% eye drop, 50 µL, 24 h): 10.6 ng/mL
O=C([O-])CN1CCN(CC(=O)[O-])CCN(CC(=O)NCC2CCC(C(=O)NC(Cc3ccc4ccccc4c3)C(=O)NCCCCC(NC(=O)NC(CCC(=O)O)C(=O)O)C(=O)O)CC2)CCN(CC(=O)[O-])CC1.[44Sc+3] (centres unmarked) — intact complex (transmetallation stability; 24 h, 37 °C, with: Fe3+ 10 mM): 95 ± 1.4%
C=CC(=O)Nc1cc(Nc2nccc(-c3cn(C4CC4)c4ccccc34)n2)c(OC)cc1NC — excreted amount (radio-HPLC; human male, feces; oral, 110 mg, 48 to 96 h, sample holds 20.06% dose; baseline: dose): 0.17%
C[C@@H]1O[C@@H](O[C@@H]2[C@@H](O)[C@H](O)[C@@H](CO)O[C@H]2c2c(O)cc(O)c3c(=O)cc(-c4ccc(O)cc4)oc23)[C@H](O)[C@H](O)[C@H]1O — Papp (in situ intestinal perfusion; rat, small intestine; dose not given, 3 h): 0.031 to 0.141 ×10⁻⁶ cm/s
CCCC[C@H](NC(C)=O)C(=O)N[C@H]1CC(=O)NCCCC[C@@H](C(=O)N[C@@H](C(=O)N2CCC[C@@H]2C(N)=O)C(C)C)NC(=O)[C@H](Cc2c[nH]c3ccccc23)NC(=O)[C@H](CCCN=C(N)N)NC(=O)[C@@H](Cc2ccc3ccccc3c2)NC(=O)[C@@H]2CCCN2C1=O — AUC (Beagle dog, both sexes, plasma; subcutaneous, once daily, 2.25 mg/kg, day 28): 29100 ± 5000 ng·h/mL

Repeated from above:
C#CCN(CCCNC(=O)CCCCC[N+]1=C(/C=C/C2=C(Cl)C(=C/C=C3\N(CCCCCC(=O)[O-])c4ccccc4C3(C)C)/CCC2)C(C)(C)c2ccccc21)CCCOc1ccc(Cl)cc1Cl — concentration (mouse plasma; 1 µg/mL nominal, 3 freeze-thaw cycles at -80 °C): 950 ± 30 ng/mL
CC(C)[C@H](NC(=O)[C@@H]1CCCN1C(=O)[C@H](CCCNC(=N)N)NC(=O)[C@H](CS)NC(=O)[C@H](Cc1c[nH]c2ccccc12)NC(=O)[C@H](CCCNC(=N)N)NC(=O)[C@@H](Cc1ccccc1)NC(=O)[C@H](Cc1c[nH]cn1)NC(=O)[C@H](CCC(=O)O)NC(=O)[C@H](CS)NC(=O)[C@H](CS)NC(=O)[C@@H]1CC(=O)N[C@@H](CCCNC(=N)N)C(=O)NCC(=O)N[C@@H](CC(=O)O)C(=O)N[C@H](Cc2ccc(O)cc2)C(=O)N1)C(N)=O [technetium-99m labelled] — tumour to tissue ratio (C57 mouse, female, B16/F1 melanoma; intravenous, 0.037 MBq, 4 h; baseline: tumour over lung): 19.2
OCc1cn(Cc2ccc(-c3noc(-c4ccc(OCC[18F])c(C(F)(F)F)c4)n3)cc2)nn1 — brain uptake (Lewis rats, female, thalamus; intravenous, 5 min): 0.46 %ID/g
